Assay results of several laboratories.
Parts stem from different laboratories: compare values within a part only. Positions count from the first letter of the parent shown.

Block 1
Target: ABI1, truncated, D143A, DHFR fusion (Arabidopsis thaliana)
Technique: DHFR PCA, deep sequencing
Matrix: yeast
Setting: methotrexate growth selection, single substitutions
Together with: (+)-ABA 0.11 µM
Relative to: wild-type fitted maximum
Direction: higher = stronger binding
Starting sequence: PYL1, truncated, DHFR fusion (Arabidopsis thaliana); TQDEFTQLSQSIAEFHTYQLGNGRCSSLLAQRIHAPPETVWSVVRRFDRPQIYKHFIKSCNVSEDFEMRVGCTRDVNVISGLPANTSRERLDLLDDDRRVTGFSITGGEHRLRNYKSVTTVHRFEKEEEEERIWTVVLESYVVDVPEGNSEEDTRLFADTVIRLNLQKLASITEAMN
| Change | relative binding score |
| --- | --- |
| Y115C | 5.49% |
| A35R | 0.587% |
| V43A | 5.93% |
| R155K | 54.6% |
| W41A | -5.38% |
| H55D | -0.0239% |
| T173Q | -5.04% |
| I12A | 2.11% |
| V76A | 4.52% |
| F124Q | 5.85% |
| T119M | 11% |
| T86C | 33.6% |

Block 2
Target: CCNA1, cyclin fold, Cln2 fusion (human)
Technique: yeast growth competition, sequencing
Matrix: yeast
Setting: weak parent motif
Relative to: not given
Direction: higher = stronger binding
Starting sequence: PKMYT1 docking peptide (human); SFEPRNLLSLFED
| Change | normalised enrichment score |
| --- | --- |
| S9R | 0.247 |
| D13I | 0.0147 |
| L10Y | 0.106 |
| D13Q | 0.113 |
| E12K | -0.126 |
| D13N | 0.191 |
| R5V | 0.0418 |
| R5N | 0.0186 |
| D13Y | 0.187 |
| L7I | 0.0921 |
| D13F | 0.0749 |
| L8I | 0.141 |
| S1W | 0.366 |
| D13M | 0.126 |
| N6S | 0.204 |
| E3N | 0.251 |

Block 3
Target: Interferon regulatory factor 7, full length, phosphomimetic (IRF7, Homo sapiens, UniProt Q92985, residues 1-503, S101K/S471D/S472D/S475D/S476D/S477D/S483D/S484D/S487D)
Technique: protein-binding microarray
Molecule type: double-stranded DNA, one strand shown
Matrix: in vitro
Tested at: 250 nM
Setting: 60-bp whole probe
Together with: salmon DNA 0.4 mg/ml
Relative to: random background probes
Direction: higher = stronger binding
Shared flanks, not repeated: GCCTAGCAC … GTCTTGATTCGCTTGACGCTGCTG
Residues (chain): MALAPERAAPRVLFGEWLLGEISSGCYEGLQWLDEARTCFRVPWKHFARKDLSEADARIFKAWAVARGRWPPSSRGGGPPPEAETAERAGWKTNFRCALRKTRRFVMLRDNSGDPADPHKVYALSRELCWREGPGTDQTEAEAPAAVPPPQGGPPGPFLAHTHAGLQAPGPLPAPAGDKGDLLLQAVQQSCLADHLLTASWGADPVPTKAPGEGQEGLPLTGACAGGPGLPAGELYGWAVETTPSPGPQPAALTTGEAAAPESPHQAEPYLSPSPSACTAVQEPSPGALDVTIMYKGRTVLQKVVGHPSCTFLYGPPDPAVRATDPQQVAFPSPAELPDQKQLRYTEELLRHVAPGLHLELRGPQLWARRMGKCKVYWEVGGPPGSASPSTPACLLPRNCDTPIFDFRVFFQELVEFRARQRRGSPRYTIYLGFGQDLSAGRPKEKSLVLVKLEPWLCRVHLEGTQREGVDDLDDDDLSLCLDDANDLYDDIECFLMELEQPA
| Strand | log fluorescence |
| --- | --- |
| GACGGTTTGGGGTATCGGGACGTGCTA | 0.0178 z-score |
| TTTACTTTCTTTTTTTCTTTGTGCTAG | 2.41 z-score |
| TTAGCTATCGACTTTCGGTTAGTGCTA | 0.716 z-score |
| GACGATCTCAGACTGAAGACGTGCTAG | -0.145 z-score |
| TTAGGTTTCCTTTGCCTTTAGTGCTAG | 2.33 z-score |
| TTAGGTTCCGCTTTCGGTTAGTGCTAG | 6.56 z-score |
| TTACGTTTCGGGTTTCGGTTAGTGCTA | 9.94 z-score |
| TCACGTAAGCAAAAATGACTGTGCTAG | -0.454 z-score |
| GGAGTTTCCACCCTTCTCTCGTGCTAG | 1.51 z-score |
| TTAGATATCAGACTGGATCAGTGCTAG | -0.246 z-score |
| TTAGGTTTCCTACGGCTTTAGTGCTAG | 0.636 z-score |
| GACGGTATCGGCTATCGGGACGTGCTA | -0.518 z-score |
| TTAGATATAAGTCTCGATTAGTGCTAG | 1.89 z-score |

Block 4
Target: RING finger protein unkempt homolog, zinc fingers 1-6, GST-SBP tag (UNK, Homo sapiens, UniProt Q9C0B0, residues 30-357)
Chain of UniProt Q9C0B0 (30-357, looked up): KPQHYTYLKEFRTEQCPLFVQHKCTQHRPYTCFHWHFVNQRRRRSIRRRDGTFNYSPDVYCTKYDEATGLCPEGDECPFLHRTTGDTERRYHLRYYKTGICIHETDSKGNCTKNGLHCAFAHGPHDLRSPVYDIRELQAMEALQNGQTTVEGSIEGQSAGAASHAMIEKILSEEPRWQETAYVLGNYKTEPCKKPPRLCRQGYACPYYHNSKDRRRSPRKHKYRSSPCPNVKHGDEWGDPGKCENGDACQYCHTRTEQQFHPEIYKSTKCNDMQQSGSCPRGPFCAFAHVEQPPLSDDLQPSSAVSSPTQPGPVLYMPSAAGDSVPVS
Technique: RNA Bind-n-Seq
Molecule type: RNA
Matrix: in vitro
Tested at: not given
Setting: RNA with constant flanks, human and mouse sites, ends assumed
Relative to: input RNA pool
Direction: higher = stronger binding
Shared flanks, not repeated: GGGAGUUCUACAGUCCGACGAUC … CAACAGAGGAUUGAGCAUCA
| Strand | bound/input enrichment [ratio] |
| --- | --- |
| AACGGCGCCCCAGCGUGUGCCCAGAAACUCUAUGCAGAACUGUGCCAGGGCAUCGUGGACAUAGCCAUAUCCAGUGUCUUCCCACCCCCGGACACGGAGCAGGUGCCGCAGCAGCCGGCU | 0.178 |
| GUCCUAGCUGAACCAUCAAGGUCUAAUGGAAAUAUGGUUCGUCAUUCUUCGUCUCCAUAUGUAUUGUAUCCACCUGAUAAGCCUUUCCUUAACAGUGAUCUGAGACGCUCCCCAAAUAAG | 0.473 |
| AGUUAAAGAAACUGUAACAUAUCUCUUAUAUAUUAAAAACGUUUAAAAGUUUUAAAGAGAAAUUGCAUUAAUACAGAUUGAAGUAUUUUAUUCUUUUUUGACUUGAAAAAUUAUAUUUCA | 0.285 |
| AUGUGCAAGGAAAUUAUUCCAACUAGUGAAUUUAUUAACAGUAAGUUAACAGCAAAAGCAAAUAGGCAACUUCAAGAUCCUUUAGUAAUCAUGACAGGAAACAUCCCAACAUGGCUUACU | 3.11 |
| UUUACAACGCACCAAGAACAUUCUAUUCGCAGAAAUUUCUUAAAAACAGGUACUAAAUUUAGCAACUUUAUUCACGAAGAACACCAGUCCAAUGGGGGUGCUCUUGUCCUUCAUGCAUAC | 1.61 |
| CUCAAUGUUAAGCCAUUGGCACGAAUUGCAGCAUUUGCUGAUGCUGCCGUAGACCCCAUUGAUUUUCCACUUGCGCCUGCAUAUGCCGUACCUAAGGUUCUUAAAUAUGCAGGACUGAAA | 0.141 |
| UUCACCGCUCCCCACAGCUUUGCACCCCUUUCCUCCCCAUACACACACAAACCAUUUUAUUUUUUGGGCCAUUACCCCAUACCCCUUAUUGCUGCCAAAACCACAUGGGCUGGGGGCCAG | 1.93 |
| AUUAAAACAACAAACGAAACCUAGUGAAGCAUCUUUUUAAAAGGCUGCCAGCUUAAUGAAUUUAGAUGUACUUUAAGAGAGAAAGACUGGUUAUUUCUCCUUUGUGUAAGUGAUAAACAA | 0.504 |
| AAGAAGUUUAAGGAAGUGGGAGAGGCCUUUACCAUCCUCUCUGAUCCCAAGAAAAAGACUCGUUAUGACAGUGGACAGGACUUGGAUGAGGAGGGCAUGAAUAUGGGCGAUUUUGAUGCA | 1.04 |
| UCUUUAUAGAAUGAGAACCUUUUUUGGACUAGCUUUUUUAUUAAAAUGGCUCAAUUUGUGUUGAUAAGGAUUGCAUUAAUAUUUAAUAGUGCUUGCUUUUCCUCUGGGCACACCAUUUUG | 11.2 |
| ACCAUUCAGGGAAACAGCAAAGGCCCCAGAGUCAAGGAACUAAACUGUGUGAAAGAAGUGACUUUGGAUGGAAGCUUUGAGGAUACGGGGAACACUGAAAGAGAACAUCAGGUCUGCGUC | 0.13 |
